Measured values collected from several papers.
Lines come from different studies, so protocols differ. Numbers after ± are the reported error.
Cell line: HT-29

| Compound | read-out | technique | tested at | time | relative to | quantity | value |
| --- | --- | --- | --- | --- | --- | --- | --- |
| CO[C@@H](C[C@H]1C(C)=CC[C@@H]2[C@]3(C)C[C@H](O[C@@H]4O[C@@H](C)[C@H](OC(=O)c5cccc(O)c5)[C@@H](O)[C@H]4O)[C@@H](O)C(C)(C)[C@H]3CC[C@]21C)[C@H](N)C(=O)O | cell growth or viability | CCK-8 |  | 72 h |  | IC50 | > 10 µM |
| CCN(C(=O)c1cc(F)ccc1Oc1nncnc1N1CCC2(C1)CN([C@H](CCCN(C)CCOC)C(C)C)C2)C(C)C | cell growth or viability |  |  | 72 h |  | GI50 | > 10 µM |
| COc1cccc(OC)c1-c1cc(C(=O)NC2(C(=O)O)C3CC4CC(C3)CC2C4)nn1-c1ccc(C(=O)N(C)CCOCCN(C)C(=O)[C@H](CCCCNC(=O)[C@H](CC(C)C)NC(=O)C2OC2C(=O)O)NC(=O)CN2CCN(CC(=O)[O-])CCN(CC(=O)[O-])CCN(CC(=O)[O-])CC2)cc1C(C)C.[177Lu+3] (mixture of isomers) |  |  | concentration not given | 120 min | added activity | internalized fraction | 3.67 ± 0.31% |
| CC(C)c1ccc(N(C)c2ccc3c(c2)OCC[C@H]3CNc2cnccc2C(=O)O)cc1 | cell growth or viability | ATP luminescence |  | 7 days |  | IC50 | 0.037 µM |
| C=CCOc1c(C)c(OC)c(C(=O)/C=C/c2ccccc2)c(OCC=C)c1C | cell growth or viability | SRB |  | 72 h |  | IC50 | > 50 µM |
| CC12CCCC(NS(=O)(=O)c3ccccc3)(C1)C1CC(C)(C)C1CC2 (stereo not drawn) | cell growth or viability | CCK-8 | 50 µM |  |  | inhibition | 97.7% |
| c1ccc2c(Cc3[nH]c4ccccc4c3Cc3c[nH]c4ccccc34)c[nH]c2c1 | cell growth or viability | ATP luminescence |  | 24 h |  | IC50 | 19 µM |
| CC12CCCC(n3cc(-c4ccccc4)nn3)(C1)C1CC(C)(C)C1CC2 (stereo not drawn) | cell growth or viability | CCK-8 | 10 µM |  |  | inhibition | < 50% |
| COc1c(C)c(OC(=O)c2ccc3ccccc3c2)c(C)c(O)c1C(=O)/C=C/c1ccccc1 | cell growth or viability | SRB |  | 72 h |  | IC50 | > 50 µM |
| CN1CCCC1CS(=O)(=O)NC12CCCC(C)(CCC3C1CC3(C)C)C2 (stereo not drawn) | cell growth or viability | CCK-8 | 10 µM |  |  | inhibition | 74% |
| CCCC(=O)Oc1c(C)c(OC)c2c(/C=C/c3ccccc3)c(CC)c(=O)oc2c1C |  | SRB |  |  | normal over HT-29 IC50 | selectivity index | > 1.62 |
| CNCCNC(=O)c1cn(C23CCCC(C)(CCC4C2CC4(C)C)C3)nn1 (stereo not drawn) | cell growth or viability | CCK-8 | 50 µM |  |  | inhibition | 72.3% |
| CN(C)CCN1CCN(c2ccc3nc(-c4ccc5nc(-c6ccc(C(F)(F)F)cc6)[nH]c5c4)[nH]c3c2)CC1 |  | SRB | 10 µM | 48 h |  | growth percent | 29.3% |
| COc1cccc(OC)c1-c1cc(C(=O)NC2(C(=O)O)C3CC4CC(C3)CC2C4)nn1-c1ccc(C(=O)NCCNC(=O)[C@H](CCCCNC(=O)[C@H](CC(C)C)NC(=O)C2OC2C(=O)O)NC(=O)CN2CCN(CC(=O)[O-])CCN(CC(=O)[O-])CCN(CC(=O)[O-])CC2)cc1C(C)C.[177Lu+3] (mixture of isomers) |  |  | concentration not given | 30 min | added activity | internalized fraction | 1.27 ± 0.13% |
| COc1c(C)c(OCc2ccccc2)c(C)c(OCc2ccccc2)c1C(=O)/C=C/c1ccccc1 | cell growth or viability | SRB |  | 72 h |  | IC50 | > 50 µM |
| COc1ccc(C(=O)NC23CCCC(C)(CCC4C2CC4(C)C)C3)cc1 (stereo not drawn) | cell growth or viability | CCK-8 | 10 µM |  |  | inhibition | < 50% |
| CCCCCCCCCC(=O)Oc1c(C)c(OC)c2c(c1C)OC(=O)C(CCCCCCCC)C2(O)C=Cc1ccccc1 (stereo not drawn) | cell growth or viability | SRB |  | 72 h |  | IC50 | > 50 µM |
| CC12CCCC(NS(=O)(=O)c3cccc(N)c3)(C1)C1CC(C)(C)C1CC2 (stereo not drawn) | cell growth or viability | CCK-8 | 10 µM |  |  | inhibition | < 50% |
